# Results collected from several papers.
# Parts stem from different laboratories: compare values within a part only. Substitutions count along the parent as printed.
# UniProt Q32MK0, sequence (whole entry, looked up): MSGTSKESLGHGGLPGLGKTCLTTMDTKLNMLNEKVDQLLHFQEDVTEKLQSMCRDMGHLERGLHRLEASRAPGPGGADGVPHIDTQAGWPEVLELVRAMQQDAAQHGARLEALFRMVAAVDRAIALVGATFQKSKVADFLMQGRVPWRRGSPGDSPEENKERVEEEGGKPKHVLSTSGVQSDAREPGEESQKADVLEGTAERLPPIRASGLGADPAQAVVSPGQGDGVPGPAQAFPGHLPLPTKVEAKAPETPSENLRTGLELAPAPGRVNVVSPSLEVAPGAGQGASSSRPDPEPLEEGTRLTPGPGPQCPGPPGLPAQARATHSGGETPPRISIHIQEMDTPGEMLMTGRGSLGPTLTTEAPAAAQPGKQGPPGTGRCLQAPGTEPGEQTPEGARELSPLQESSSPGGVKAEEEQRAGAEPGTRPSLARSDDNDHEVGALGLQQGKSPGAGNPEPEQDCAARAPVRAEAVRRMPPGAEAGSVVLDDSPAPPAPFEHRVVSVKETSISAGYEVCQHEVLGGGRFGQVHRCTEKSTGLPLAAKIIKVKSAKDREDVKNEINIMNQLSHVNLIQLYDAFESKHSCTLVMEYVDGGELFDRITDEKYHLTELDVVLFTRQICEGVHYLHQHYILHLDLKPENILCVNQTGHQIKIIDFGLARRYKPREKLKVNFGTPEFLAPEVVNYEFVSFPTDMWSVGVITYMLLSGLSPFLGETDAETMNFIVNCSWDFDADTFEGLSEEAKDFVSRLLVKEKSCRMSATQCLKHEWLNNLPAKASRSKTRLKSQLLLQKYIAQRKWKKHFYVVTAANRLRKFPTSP

# Study 1
# Target: Prothrombin, mature alpha-thrombin (F2, Homo sapiens, UniProt P00734)
# Technique: aptamer microarray, sandwich
# Form: DNA with 2'F-ANA
# Medium: in vitro
# Concentration: 200 nM
# Notes: whole 15-mer aptamer, many near background
# Together with: Cy3 exosite-II aptamer, 400 nM
# Direction: higher = stronger binding
# Strand: GGTTGGTGTGGTTGG
Modification,mean fluorescence intensity [a.u.]
2'F-ANA at 3 5 7 9 10 13,53.1
2'F-ANA at 1 4 5 6 7 8 9 10 12 13,50.2
2'F-ANA at 1 2 4 5 6 7 8 10 11 13,52.9
2'F-ANA at 2 4 5 6 8 9 10 11 12 14,44.9
2'F-ANA at 1 2 4 6 8 9 10 11 14 15,51.9
2'F-ANA at 3 4 11 14,383
2'F-ANA at 1 2 5 7 8 9 10 11 13 14 15,70.1
2'F-ANA at 1 2 4 6 7 8 15,164

# Study 2
# Target: ABI1, truncated, D143A, DHFR fusion (Arabidopsis thaliana, UniProt P49597)
# Technique: DHFR PCA, dose-response
# Medium: yeast
# Notes: Hill fit, not affinity, not high confidence
# Together with: (+)-ABA, dose series
# Direction: lower = more sensitive
# Starting sequence: PYL1, truncated, DHFR fusion (Arabidopsis thaliana, UniProt Q8VZS8); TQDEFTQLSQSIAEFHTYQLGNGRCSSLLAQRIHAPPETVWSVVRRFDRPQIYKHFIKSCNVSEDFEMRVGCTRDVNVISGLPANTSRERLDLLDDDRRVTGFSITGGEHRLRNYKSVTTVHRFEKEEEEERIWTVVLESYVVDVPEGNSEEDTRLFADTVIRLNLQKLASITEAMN
Substitution,ABA EC50 [µM]
L91I,264
V121E,20.5
L29P,0.613
V161Q,0.685
T120F,305
D48L,692
E128G,3.14
V43G,1020

# Further values, each from its own experiment
Substance,target,assay,test system,conditions,how to read,measurement,result
CCCCN(CCCC)C(=O)CN1C[C@@H](c2cc(OC)c3c(c2)OCO3)[C@H](C(=O)O)[C@H]1CC(C)(C)CCC,"MYLK3 (Homo sapiens, UniProt Q32MK0)","cell-free assay, competition with immobilised ligand",,1 µM,,remaining binding,100%
"PhoQ, residues 284 288 289 292 302 303 AAQSYM","PhoP, residues 12 14 15 18 19 TQAIL (Escherichia coli, UniProt P23836)","Sort-seq, item: YFP reporter",E. coli,"PhoQ-PhoP variant library, together with: 10 µM Mg2+","reference: high Mg2+ state, higher = stronger signaling",fold induction,21.1
